# Published values from different studies.
# A part holds a random share of what one study measured. Several values in a cell are separate wells, animals, samples, runs or records.

# Study 1
# Structure (SMILES): C#Cc1cccc2cc(O)cc(-c3ncc4c(N5CC6CCC(C5)N6)nc(OCC56CCCN5CCC6)nc4c3F)c12
# Target: GTPase HRas (HRAS, Homo sapiens, UniProt P01112)
# Observed: binding
# Mode: competitor
# Method: NanoBRET
# Cells: HEK293
concentration,normalized BRET
123 nM,98.5% and 107% and 83.8% and 98.1%
508 pM,98.5% and 83.4% and 107% and 101%
3.33 µM,78.2% and 61.5% and 74.5% and 91.1%

# Study 2
# Structure (SMILES): CCN1/C(=C/C=C2\CCCC(/C=C/C3=[N+](CC)c4ccccc4C3(C)C)=C2NCCCCCCCCN2CCC(Nc3nc4ccccc4n3Cc3ccc(F)cc3)CC2)C(C)(C)c2ccccc21
# Cell line: U-87 MG
# Concentration: concentration not given
# Relative to: DMSO
measured,log2 fold change
PDGFRB mRNA,-2.28
LDAF1 mRNA,2.1
NCAPD3 mRNA,-1
CCNJ mRNA,1.05
MGST3 mRNA,-1.06
CDH7 mRNA,-1.83
AAK1 mRNA,1.01
PGAP3 mRNA,-0.974

# Study 3
# Cell line: MDA-MB-231
# Observed: cell viability
# Method: CellCounting-Lite
# Concentration: 8.23 nM
# Temperature: 37 °C
# Direction: higher = more viable cells
Structure (SMILES),luminescence signal
CCn1cnc2c(NCc3nc4cc(Cl)c(Cl)cc4[nH]3)nc(N3CCN(C(=O)[C@H](C)NC(C)=O)CC3)nc21,464000 a.u. and 481000 a.u. and 471000 a.u.
CC(=O)N1CCN(c2nc(NCc3nc4cc(Cl)c(Cl)cc4[nH]3)c3ncn(C(C)C)c3n2)CC1,487000 a.u. and 509000 a.u. and 522000 a.u.
CC(=O)N1CCN(c2nc(NCc3nc4cc(Cl)c(Cl)cc4[nH]3)c3ncn(C)c3n2)CC1,321000 a.u. and 393000 a.u. and 508000 a.u.
CCn1cnc2c(NCc3nc4cc(Cl)c(Cl)cc4[nH]3)nc(N3CCC(NC(C)=O)CC3)nc21,468000 a.u. and 479000 a.u. and 532000 a.u.
CCn1cnc2c(NCc3nc4ccc(F)c(F)c4[nH]3)nc(N3CCn4ncnc4C3)nc21,508000 a.u. and 523000 a.u. and 475000 a.u.
CCn1cnc2c(NCc3nc4cc(Cl)c(Cl)cc4[nH]3)nc(N3CCN(S(C)(=O)=O)CC3)nc21,449000 a.u. and 387000 a.u. and 440000 a.u.
CCn1cnc2c(NCc3nc4cc(Cl)c(Cl)cc4[nH]3)nc(N3CCN(C(=O)c4ccccn4)CC3)nc21,302000 a.u. and 313000 a.u. and 347000 a.u.
CCn1cnc2c(NCc3nc4cc(Cl)c(Cl)cc4[nH]3)nc(N3CCN(c4ccccn4)CC3)nc21,673000 a.u. and 608000 a.u. and 600000 a.u.

# Mixed results
Structure (SMILES),species,route,dose,measurement,result
Cn1cc(-c2cccc(CN3CCC4(CC3)COc3c4ccc4c3CN([C@H]3CCC(=O)NC3=O)C4=O)c2)cn1,cynomolgus monkey,oral,3 mg/kg,AUC(0-inf),1880 ng·h/mL and 1390 ng·h/mL and 1450 ng·h/mL

# Repeated from above (study 2):
measured,log2 fold change
CDH7 mRNA,-1.83
LDAF1 mRNA,2.1
CCNJ mRNA,1.05
